Published values of several laboratories.
Protocols differ between the studies behind these lines.
Matrix: plasma

| system | setting | Tmax | Compound |
| --- | --- | --- | --- |
| human | oral, 60 mg, single dose, median | 0.5 h | O=C(CCc1ccc(CNC(C(=O)OC2CCCC2)C2CCCCC2)cn1)NO (centres unmarked) |
| Sprague-Dawley rat, male | oral, 30 mg/kg/day of parent drug, day 1, 90-day repeated dosing | 3 h | Cc1ccc(OCC(=O)O)cc1 |
| male Sprague-Dawley rat | oral, 100 mg/kg, single dose | 0.67 h | C[Si]1(C[C@H](CN)CC(=O)O)CCCC1 |
| male Sprague-Dawley rat | oral, 100 mg/kg, single dose | 1 h | Cc1ccc(OCC(=O)N(Cc2cccs2)c2ccn[nH]2)cc1 |
| human patients | intravenous, 75 mg/m^2 of parent drug | 1.28 h | CCc1c2c(nc3ccc(O)cc13)-c1cc3c(c(=O)n1C2)COC(=O)[C@]3(O)CC |
| human, both sexes | oral, 100 mg, day 1, multiple dose, geometric mean | 3.9 h | CCc1cc(Nc2nc(-c3ccc(-n4cnc(C)c4)c(F)c3)cs2)c(C)cc1C |
| male Sprague-Dawley rat | oral, 100 mg/kg, single dose | 0.5 h | C[Si](C)(C)C[C@H](CN)CC(=O)O |
| human | 10 mg once daily, day 28, median | 1.5 h | Cn1c(=O)oc2ccc(-c3ccc(CC(C#N)NC(=O)C4CNCCCO4)c(F)c3)cc21 (centres unmarked) |

A few entries again:
| system | setting | Tmax | Compound |
| --- | --- | --- | --- |
| human | oral, 60 mg, single dose, median | 0.5 h | O=C(CCc1ccc(CNC(C(=O)OC2CCCC2)C2CCCCC2)cn1)NO (centres unmarked) |
